# Measurements collected from several papers.
# Compare with care: the assays were run in different laboratories. ± marks the error that the study gave.
# MAPK14: Mitogen-activated protein kinase 14 (MAPK14, Homo sapiens, UniProt Q16539)
# CD38: ADP-ribosyl cyclase/cyclic ADP-ribose hydrolase 1 (CD38, Homo sapiens, UniProt P28907)
# T1: RNA aptamer A50U; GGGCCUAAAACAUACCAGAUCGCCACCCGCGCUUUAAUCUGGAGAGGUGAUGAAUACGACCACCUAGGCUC
# T2: RNA aptamer; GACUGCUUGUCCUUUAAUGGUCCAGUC
# T3: RNA aptamer GAA^A junction to GGG^A; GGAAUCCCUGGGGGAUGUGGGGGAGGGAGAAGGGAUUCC
Compound,target,test,system,setting,scale,endpoint,value
COc1cc(C(=O)NC2CCC(N3CCN(CC4CCC5(CCCC5)C4)CC3)CC2)c(F)cc1Nc1ncc2c(n1)N(C1CCCC1(F)F)CC(F)(F)C(=O)N2C (centres unmarked),"RAF1 (Homo sapiens, UniProt P04049)","cell-free assay, TR-FRET",,10 µM,,inhibition,6.19%
CC[C@H](C)[C@H](NC(=O)[C@@H](NC(=O)[C@H](CC(C)C)NC(=O)[C@H](CCC(=O)O)NC(=O)[C@H](CCC(=O)O)NC(=O)[C@H](CCC(N)=O)NC(=O)[C@@H]1CCCN1C(=O)[C@H](CC(=O)O)NC(=O)[C@H](COP(=O)(O)O)NC(=O)CNC(=O)[C@H](Cc1ccc(O)cc1)NC(=O)[C@@H](N)CC(C)C)[C@@H](C)CC)C(=O)O,"Partitioning defective 3 homolog, PDZ3 domain (Pard3, Mus musculus, UniProt Q99NH2)",fluorescence polarization,,concentration not given,relative to: long VE-cadherin construct,binding fold increase,~2 fold
O=C1CC[C@H](N2Cc3cc(-c4ccn5nccc5n4)ccc3C2=O)C(=O)N1,"Cereblon/Casein kinase I alpha (CSNK1A1/CRBN, Homo sapiens, UniProt P48729+Q96SW2)","protein level, degrader, luciferase",MOLT-4,,,Dmax,79%
CC(C)c1csc2nc[nH]c(=O)c12,MAPK14,enzyme activity,,,,ligand efficiency,0.22
CN(C)[C@@H]1C(=O)C(C(N)=O)=C(O)[C@@]2(O)C(=O)C3=C(O)c4c(O)cccc4[C@@](C)(O)[C@H]3C[C@@H]12,"T1, RNA aptamer A50U",fluorescence titration,,"pH 7.5, 25 °C, MgCl2 10 mM",,Kd,0.196 µM
Cc1cc(O)c2c(c1)C(=O)c1cc3oc(=O)cc(C)c3c(O)c1C2=O,mushroom tyrosinase,enzyme activity,,"25 µg/mL, with: L-DOPA",,inhibition,12.1 ± 0.74%
COc1cc(/C=C2/SC(=S)N(CC(=O)Nc3cccc(C(=O)O)c3)C2=O)cc(OC)c1OC,CD38,"hydrolase activity, fluorometric",,"50 µM, with: ε-NAD+ substrate",relative to: untreated,remaining activity,98 ± 3.9%
NC[C@@H]1O[C@H](O[C@H]2[C@@H](O)[C@H](O[C@@H]3[C@@H](O)[C@H](N)C[C@H](N)[C@H]3O[C@H]3O[C@H](CN)[C@@H](O)[C@H](O)[C@H]3N)O[C@@H]2CO)[C@H](N)[C@@H](O)[C@@H]1O,"T2, RNA aptamer",UV melting,,"1 µM RNA, 10 µM molecule, pH 6.8, NaCl 100 mM",,melting temperature change,21.3 °C
CC(=O)NCCN(CC(=O)NCCN(CC(=O)NCCN(CC(=O)NCCC(N)=O)C(=O)C[C@@H](N)CCCNC(=N)N)C(=O)C[C@@H](N)CCCCN)C(=O)C[C@@H](N)Cc1ccccc1,HIV-1 TAR RNA,,,concentration not given,,heat capacity change ΔCp,-1.85 ± 0.14 kJ/mol/K
CCc1nc2cc3ccccc3cc2cc1C(=O)N1CCC[C@H]1C(=O)N[C@@H](C/C=C/C[C@H](NC(=O)[C@@H]1CCCN1C(=O)c1cc2cc3ccccc3cc2nc1CC)C(=O)N[C@@H](CCCCN)C(=O)NCCCN)C(=O)N[C@@H](CCCCN)C(=O)NCCCN,HIV-1 frameshift site RNA,SPR,,,,residence time,177 s
CN1C=C/C(=C/C=C/c2sc3ccccc3[n+]2CC(=O)NCCOCCOCCOCCNC(=O)CCCC[C@@H]2SC[C@@H]3NC(=O)N[C@@H]32)c2ccccc21,"T3, RNA aptamer GAA^A junction to GGG^A",fluorescence titration,,,,binding,binds weakly
C=CCC(=N)NCCC[C@H](N)C(=O)O,"Nos1 (Rattus norvegicus, UniProt P29476)","cGMP accumulation, inhibitor",rat aorta and hippocampus,,relative to: aorta over hippocampus,IC50 ratio,3.3
C=CCC1NC(=O)C=CC(=O)NC(C(N)=O)CCNC(=O)C(CCCNC(=O)c2cnccn2)NC(=O)C(Cc2ccco2)NC1=O (centres unmarked),MAPK14,DNA-templated library selection,,one selection round,,enrichment factor,1
C=C1CN(S(=O)(=O)c2ccc(C)cc2)CCCN(Cc2ccccc2)CCCN(S(=O)(=O)c2ccc(C)cc2)C1,"Inactive tyrosine-protein kinase 7 (PTK7, Homo sapiens, UniProt Q13308)",SILAC mass spectrometry,"SUP-T1, crude membrane fraction","10 µM, 17 h, reverse labelling",relative to: DMSO over compound,protein level ratio,2.49
CC(=O)NCCN(CC(=O)NCCN(CC(=O)NCCN(CC(=O)NCCC(N)=O)C(=O)[C@@H](N)CCCNC(=N)N)C(=O)[C@@H](N)Cc1ccccc1)C(=O)[C@@H](N)Cc1ccccc1,HIV-1 TAR RNA,,,concentration not given,,heat capacity change ΔCp,-2.09 ± 0.22 kJ/mol/K
NC/C(=C\F)COc1cc(Cl)cc(-c2cc(=O)[nH]c(=S)n2CC(N)=O)c1,"AOC3 (Homo sapiens, UniProt Q16853)","enzyme activity, Amplex Red H2O2",,,relative to: PXS-4728 over compound,potency ratio,> 1000 fold
CC[C@H](C)[C@H](NC(=O)[C@H](C)NC(=O)CNC(=O)[C@H](CCCCN)NC(=O)[C@H](CC(C)C)NC(=O)[C@H](CCCCN)NC(=O)[C@H](CCCNC(=N)N)NC(=O)[C@H](CCCNC(=N)N)NC(=O)[C@H](C)NC(=O)[C@H](CC(N)=O)NC(=O)[C@H](Cc1ccccc1)NC(=O)[C@H](CCCCN)NC(=O)[C@H](CCCCN)NC(=O)[C@H](CC(C)C)NC(=O)c1ccc2c(c1)C(=O)OC21c2ccc(O)cc2Oc2cc(O)ccc21)C(=O)N[C@@H](CC(C)C)C(=O)N[C@H](C(=O)N[C@H](C(=O)N[C@@H](CCSC)C(=O)N[C@@H](CC(C)C)C(=O)N[C@@H](C)C(=O)O)[C@@H](C)O)[C@@H](C)O,"Calmodulin-1, N-lobe (Calm1, Rattus norvegicus, UniProt P0DP29)","binding, fluorescence anisotropy",,calmodulin N-domain CaCl2 titration,,fractional saturation,76%
CCCC(=O)Nc1ccc(OC)nc1C,"CES1 (Homo sapiens, UniProt P23141)","enzyme activity, substrate",,,relative to: CES1 over human CES2,specific activity ratio,0.5
OCCn1nc(-c2ccccc2)c2c(Cl)c(-c3ccccc3)nnc21,"Clarin-1 (CLRN1, Homo sapiens, UniProt P58418, N48K)",CLRN1 N48K expression,D6,0.5 h exposure then 24 h in compound-free medium,,EC90,15 µM
CC(=O)NCCN(CCC(=O)NCCN(CCC(=O)NCCN(CCC(=O)NCCC(N)=O)C(=O)[C@@H](N)CCCCN)C(=O)[C@@H](N)Cc1ccccc1)C(=O)[C@@H](N)Cc1ccccc1,HIV-1 TAR RNA,,,extrapolated to 1 M KCl,,non-electrostatic ΔG°,-8.1 ± 0.0956 kcal/mol
Nc1ncnc2c1ncn2[C@@H]1O[C@H](CO)[C@@H](O[C@H]2O[C@H](CO)[C@@H](OP(=O)(O)O)[C@H](OP(=O)(O)O)[C@H]2O)[C@H]1O,"Itpr1 (Rattus norvegicus, UniProt P29994, del318-332/R504Q)","Ca2+ release, agonist",permeabilized DT40 cells,,,Hill coefficient,1.9 ± 0.4
CC(=O)NCCN(CC(=O)NCCN(CC(=O)NCCN(CC(=O)NCCC(N)=O)C(=O)C[C@@H](N)Cc1ccccc1)C(=O)C[C@@H](N)CCCNC(=N)N)C(=O)C[C@@H](N)Cc1ccccc1,HIV-1 TAR RNA,,,,,non-electrostatic TΔS°,0.86 ± 0.263 kcal/mol
Cc1nc(SCC(=O)Nc2ccc(-n3cnnn3)cc2)c2c(C)c(C)sc2n1,CD38,"cyclase activity, fluorometric",,"50 µM, with: NGD+ substrate",relative to: untreated,remaining activity,53.9 ± 49.7%
CC(=O)NCCN(CCC(=O)NCCN(CCC(=O)NCCN(CCC(=O)NCCC(N)=O)C(=O)[C@@H](N)Cc1ccccc1)C(=O)[C@@H](N)CCCNC(=N)N)C(=O)[C@@H](N)CCCNC(=N)N,HIV-1 TAR RNA,,,25 °C,,binding free energy ΔG°,-8.8 ± 0.335 kcal/mol
C[C@]12C[C@H](c3ccc(S(C)(=N)=O)cc3)C3=C4CCC(=O)C=C4CC[C@H]3[C@@H]1CC[C@@]2(O)C(F)(F)C(F)(F)F (some centres unmarked),"Progesterone receptor (Rattus norvegicus, UniProt Q63449)",pregnancy termination,"rat, early pregnancy",oral,,fully effective dose,~0.5 mg/kg
CC(=O)NCCN(CCC(=O)NCCN(CCC(=O)NCCN(CCC(=O)NCCC(N)=O)C(=O)[C@@H](N)CCCNC(=N)N)C(=O)[C@@H](N)Cc1ccccc1)C(=O)[C@@H](N)Cc1ccccc1,HIV-1 TAR RNA,,,25 °C,,binding free energy ΔG°,-9.13 ± 0.406 kcal/mol
CC[C@H](C)[C@H](NC(=O)[C@H](CO)NC(=O)[C@H](CCCCN)NC(=O)CNC(=O)[C@H](CCCCN)NC(=O)[C@H](CC(=O)O)NC(=O)[C@H](Cc1c[nH]cn1)NC(=O)[C@H](CC(C)C)NC(=O)[C@H](CC(C)C)NC(=O)[C@H](CCC(N)=O)NC(=O)[C@H](Cc1c[nH]cn1)NC(=O)[C@H](CCC(=O)O)NC(=O)[C@H](CO)NC(=O)[C@@H](NC(=O)[C@H](C)N)C(C)C)C(=O)N[C@@H](CCC(N)=O)C(=O)N[C@@H](CO)C(=O)N[C@@H](CCSC)C(=O)N[C@@H](CCC(=O)O)C(=O)N[C@@H](CCCNC(=N)N)C(=O)N[C@H](C(=O)N[C@@H](CCC(=O)O)C(=O)N[C@@H](Cc1c[nH]c2ccccc12)C(=O)N[C@@H](CC(C)C)C(=O)N[C@@H](CCCNC(=N)N)C(=O)N[C@@H](CCCCN)C(=O)N[C@@H](CCCCN)C(=O)N[C@@H](CC(C)C)C(=O)N[C@@H](CCC(N)=O)C(=O)N[C@@H](CC(=O)O)C(=O)N[C@H](C(=O)N[C@@H](Cc1c[nH]cn1)C(=O)N[C@@H](CC(N)=O)C(=O)N[C@@H](Cc1ccccc1)C(=O)N[C@@H](CCCCNC(=O)c1ccc2c(c1)C1(OC2=O)c2ccc(N(C)C)cc2Oc2cc(N(C)C)ccc21)C(N)=O)C(C)C)C(C)C,"PTH1R (Homo sapiens, UniProt Q03431)","binding, NanoBRET",HEK293 stably expressing receptor,"room temperature, 0.02% sodium azide, with: 5 µM coelenterazine h",,kon,430000 ± 60000 M⁻¹ s⁻¹
CC(=O)NCCN(CC(=O)NCCN(CC(=O)NCCN(CC(=O)NCCC(N)=O)C(=O)C[C@@H](N)Cc1ccccc1)C(=O)C[C@@H](N)CCCNC(=N)N)C(=O)C[C@@H](N)CCCNC(=N)N,HIV-1 TAR RNA,,,extrapolated to 1 M KCl,,non-electrostatic ΔG°,-7.17 ± 0.12 kcal/mol
N=C(N)NCCC[C@H](NC(=O)[C@H](Cc1ccccc1)NC(=O)[C@@H](N)CO)C(=O)N[C@@H](CC(N)=O)C(=O)NCC(N)=O,"NPSR1 (Homo sapiens, UniProt Q6W5P4)","calcium mobilization, agonist",CHO-Galpha16,unit not given,relative to: maximal assay window,maximal response,0.97

# Repeated from above:
Compound,target,test,system,setting,scale,endpoint,value
CN(C)[C@@H]1C(=O)C(C(N)=O)=C(O)[C@@]2(O)C(=O)C3=C(O)c4c(O)cccc4[C@@](C)(O)[C@H]3C[C@@H]12,"T1, RNA aptamer A50U",fluorescence titration,,"pH 7.5, 25 °C, MgCl2 10 mM",,Kd,0.196 µM
Cc1cc(O)c2c(c1)C(=O)c1cc3oc(=O)cc(C)c3c(O)c1C2=O,mushroom tyrosinase,enzyme activity,,"25 µg/mL, with: L-DOPA",,inhibition,12.1 ± 0.74%
COc1cc(/C=C2/SC(=S)N(CC(=O)Nc3cccc(C(=O)O)c3)C2=O)cc(OC)c1OC,CD38,"hydrolase activity, fluorometric",,"50 µM, with: ε-NAD+ substrate",relative to: untreated,remaining activity,98 ± 3.9%
NC[C@@H]1O[C@H](O[C@H]2[C@@H](O)[C@H](O[C@@H]3[C@@H](O)[C@H](N)C[C@H](N)[C@H]3O[C@H]3O[C@H](CN)[C@@H](O)[C@H](O)[C@H]3N)O[C@@H]2CO)[C@H](N)[C@@H](O)[C@@H]1O,"T2, RNA aptamer",UV melting,,"1 µM RNA, 10 µM molecule, pH 6.8, NaCl 100 mM",,melting temperature change,21.3 °C
